Experimental data collected from several papers.
± gives the spread as reported.

SMILES	cell line	assay	conditions	scale	endpoint	value
CC(Cc1ccc(Cl)cc1)=C(c1ccc(Cl)cc1)c1ccc(OCCN(C)C)cc1	A549/ATCC	NCI five-dose screen	non-small-cell lung cancer	–	GI50	4.52 µM
COc1cc(CNC(=O)C[C@H](C)CCC=C(C)C)ccc1OCc1cn(-c2ccc([N+](=O)[O-])cc2)nn1	A549/ATCC	SRB	10 µM, 48 h	–	growth	85.5%
COc1ccc([C@@H]2CC(=O)c3c(O)cc(O[C@@H]4O[C@H](CO[C@@H]5O[C@@H](C)[C@H](O)[C@@H](O)[C@H]5O)[C@@H](O)[C@H](O)[C@H]4O)cc3O2)cc1O	A549	trypan blue exclusion	100 µg/mL, 24 h	–	cell count	10800 ± 438
Cc1ccc2nc(-c3ccccc3)c(CN3CC[C@H](F)C3)n2c1	CRL8155	cell growth or viability	48 h	–	EC50	> 50 µM
CO[C@@H]1[C@@H](O[C@@H]2O[C@H](C)[C@@H](O[C@H]3C[C@@](C)(O)[C@@H](OC(=O)CN4CCOCC4)[C@H](C)O3)[C@H](N(C)C)[C@H]2O)[C@@H](CC=O)C[C@@H](C)[C@@H](O[C@H]2CC[C@H](N(C)C)[C@@H](C)O2)/C=C/C=C/C[C@@H](C)OC(=O)C[C@H]1O	GES-1 and HGC-27	cell growth, CCK-8	72 h	relative to: IC50 GES-1 over HGC-27	selectivity index	1.65
CCOC(=O)CCC(NC(=O)C(NC(=O)c1c(C)nn(-c2cc[nH]c(=O)c2)c1C)C(C)C)C(=O)OCC (stereo not shown)	human PBMCs	–	10 µM, 24 h, with or without LPS	–	IL-12p70 secretion	increased
C[N+]1(CC(=O)OC2CCCCCCCCCCC2)CCCCC1	PC-3	cell viability, CellTiter Blue	96 h	–	ED70	12.5 µM
O=Cc1c(O)ccc2ccccc12	HUVEC	RNA sequencing, refers to: HIST1H2AC	75 µM, 24 h	relative to: DMSO	log2 fold change	2.7
C#CCN(CC(=O)O[C@H]1[C@H](C)O[C@@H](O[C@H]2[C@H](N(C)C)[C@@H](O)[C@H](O[C@H]3[C@@H](CC=O)C[C@@H](C)[C@@H](O[C@H]4CC[C@H](N(C)C)[C@@H](C)O4)/C=C/C=C/C[C@@H](C)OC(=O)C[C@@H](O)[C@@H]3OC)O[C@@H]2C)C[C@@]1(C)O)C(=O)c1ccc(C(C)(C)C)cc1	GES-1 and HGC-27	cell growth, CCK-8	72 h	relative to: IC50 GES-1 over HGC-27	selectivity index	4.3
COc1ccc2c(c1)c1c(C)c3cnccc3c(C)c1n2CCCN1CCN(C)CC1	SK-N-SH	MultiTox-Fluor	IC50, 48 h	–	loss of cell viability	> 75%
O=C(c1ccc2ccccc2c1)c1cn(-c2ccccc2)nc1C1=Nn2c(Cc3nnc4n3N=C(c3nn(-c5ccccc5)cc3C(=O)c3ccc5ccccc5c3)CS4)nnc2SC1	MCF7 cells	RT-PCR, refers to: Bcl-2	IC50, 48 h	relative to: untreated	mRNA level	0.17 fold
COc1ccc(CC[C@H]2OC(=O)[C@@H]3CCCCN3C(=O)C(=O)C(C)(C)COC(=O)/C=C/CCN(C)C(=O)[C@H](CC(C)C)N(C)C(=O)[C@@H]3CCCN3C(=O)[C@H](Cc3ccccc3)N(C)C(=O)[C@H](c3ccccc3)NC(=O)CCC(=O)Nc3cccc2c3)cc1OC	HEK293T	inhibitor, [3H]-thymidine uptake	concentration not given	–	thymidine uptake	inhibited
CCNc1cc2c(cc1C)C1(c3cc(C)c(NCC)cc3O2)c2ccccc2C(=O)N1N=Cc1c[c-]c(-c2ccccn2)cc1.Cc1c(C)c(-c2ccc(-c3ccccc3)cc2)[c-](C)c1C.[Cl-].[Ir+3]	A549	flow cytometry	concentration not given, 24 h, added: N-acetylcysteine 10 mM	relative to: untreated	NF-κB p65 protein level	no effect
COc1cc(CNC(=O)C[C@H](C)CCC=C(C)C)ccc1OCc1cn(-c2cccc([N+](=O)[O-])c2)nn1	786-0	SRB	10 µM, 48 h	–	growth	71.4%
O=C(NCC1(c2nc(-c3ccccc3)cs2)CCOCC1)c1cccc(-c2noc(C(F)(F)F)n2)c1	DHL6	RNA sequencing	3 µM, 12 h	–	significantly changed genes	240 genes
CCN(CC)CC(=O)Nc1cccc(-n2cc(-c3ccc4ccc(-c5cn(-c6cccc(NC(=O)CN(CC)CC)c6)nn5)cc4c3)nn2)c1	RCC4	qRT-PCR, refers to: HIF-1α	10 x IC50	relative to: untreated	mRNA level	27.3%
Cc1nn(-c2ccc(S(=O)(=O)N[C@@H](CO)CC(C)C)cc2)c2nn3nnnc3nc12	PC-3	PI/Hoechst staining	1 µM, 24 h	–	necrotic cells	42.5 ± 3.53%
Cc1ccc(NC(=O)c2c(C)oc3ccc(O)c(CN4CCCCCC4)c23)cc1	L-363	propidium iodide flow cytometry	10 µM, 72 h	–	cells in G1 phase	~85%
COc1cc(CNC(=O)C[C@H](C)CCC=C(C)C)ccc1OCc1cn(-c2cccc(C(F)(F)F)c2)nn1	MDA-MB-231/ATCC	SRB	10 µM, 48 h	–	growth	87.2%
COc1ccc(CC2COC(=O)C2Cc2ccc3c(c2)OCO3)cc1OC (mixture of isomers)	A2780cis (cisplatin-resistant)	Western blot, refers to: cyclin D1	3.25 µM, 48 and 72 h	relative to: 0 h control	protein level	decreased
COc1cc(CNC(=O)C[C@H](C)CCC=C(C)C)ccc1OCc1cn(-c2ccc(Cl)cc2Cl)nn1	MCF7 breast cancer cells	SRB	10 µM, 48 h	–	growth percent	67.5%
Cc1cc2[nH]c(C(=O)Nc3ccccc3C)c(CN3CCOCC3)c2s1	HEK293	cell growth or viability	100 µM	–	inhibition	< 50%
CC(=C(c1ccc(O)cc1)c1ccc(Cl)cc1)c1ccc(Cl)cc1	A549/ATCC	NCI five-dose screen	non-small-cell lung cancer	–	GI50	0.78 µM
Fc1ccc(-c2cn(CSc3ccccc3)nn2)c(F)c1	JEG-3	qPCR, refers to: p53, HDM2, p21, MIC-1	100 µM, 6 h	relative to: vehicle	mRNA level	increased
O=S(=O)(CC(F)(F)F)Nc1ccc(Oc2ncccc2-c2ccnc(N[C@H]3CCCNC3)n2)c2ccccc12	INS1 cells with Dox-inducible IRE1α	IRE1α-induced decrease, RNA-Seq	20 µM, added: 5 ng/mL doxycycline	–	secretome transcript level	inhibited

SMILES	cell line	assay	conditions	scale	endpoint	value
CN(C)c1cccc2c(S(=O)(=O)NCCCCCC(=O)NO)cccc12	PC-3	Western blot	concentration not given	–	histone H3 acetylation	increased
O=[N+]([O-])[O-].[NH3+][Pt-2]1([NH3+])[O]C(C(F)(F)F)=CC(c2ccccc2)=[O+]1 (stereo not shown)	NCI-60 panel	SRB	10 µM, 48 h	relative to: untreated	mean growth	89.7%
CCCc1cc2cc(-n3nc(C)c4c3CC(C)(C)CC4=O)cc(N[C@H]3CCOC3)c2c(=O)[nH]1	hiPSC cardiomyocytes	–	concentration not given, 30 min	–	APD90 change	< 20%
O=C1OCC2=C1C(c1cccc(Br)c1)C1=C(N2)C(=O)c2ccccc2C1=O (stereo not shown)	SK-LU-1 cells	annexin V/PI	0.08 µM, 24 h	–	total apoptotic cells	8.04%
CCN(c1ncnc2sc(C)c(C)c12)C1CCC(N(C)C)CC1 (stereo not shown)	human white blood cells	–	concentration not given, 1 h pretreatment, added: LPS 1 µg/mL or CpG 0.5 µM	–	TNF production	inactive
FC(F)(F)c1ccnc(-c2cc(C(F)(F)F)ccn2)c1.FC(F)(F)c1ccnc(-c2cc(C(F)(F)F)ccn2)c1.[Cl-].[Cl-].[Ru+2].c1csc(-c2ccc(-c3ccc(-c4nc5c6cccnc6c6ncccc6c5[nH]4)s3)s2)c1	SK-MEL-28	cell viability	normoxia, added: visible light	relative to: dark EC50 over light EC50	mean phototherapeutic index	1400
O=C1CCC(N2C(=O)c3ccc(N4CCC(C(=O)N5CCC(CCN6CCC(CNC(=O)c7cccc(-c8noc(C(F)(F)F)n8)c7)(c7nc(-c8ccccc8)cs7)CC6)CC5)CC4)cc3C2=O)C(=O)N1 (stereo not shown)	DHL6	RNA sequencing	3 µM, 12 h	–	downregulated genes	1390 genes
COc1cc(CNC(=O)C[C@H](C)CCC=C(C)C)ccc1OCc1cn(-c2ccccc2Cl)nn1	MDA-MB-231/ATCC	SRB	10 µM, 48 h	–	growth	72.6%
CCOc1c(C(C)(C)O)sc2cnc(Nc3ccc(N4CCC(N5CC6(COC6)C5)CC4)cc3OC)nc12	human atrial cardiomyocytes	confocal line scan	1, 3 and 10 µM	relative to: vehicle	Ca spark frequency	decreased
COc1ccc([C@@H]2CC(=O)c3c(O)cc(O[C@@H]4O[C@H](CO[C@@H]5O[C@@H](C)[C@H](O)[C@@H](O)[C@H]5O)[C@@H](O[C@H]5O[C@H](CO)[C@@H](O)[C@H](O)[C@H]5O)[C@H](O)[C@H]4O)cc3O2)cc1O	A549	cell growth or viability, MTS	150 µg/mL, 48 h	–	viability	31.2%
CN(C)c1cc2ccccc2c(N)n1	LX-2	western blot	concentration not given, 6 h pre-treatment, added: TGF-β1 5 ng/mL for 24 h	–	α-SMA protein level	inhibited
Cc1cccc(NCC(=O)Nc2nc3ccccc3s2)c1	normal fibroblasts	–	10 µM	–	inhibition	9.09%
COc1cc(CNC(=O)C[C@H](C)CCC=C(C)C)ccc1OCc1cn(-c2ccc(C#N)cc2)nn1	A549/ATCC	SRB	10 µM, 48 h	–	growth	48.2%
C=C1C(=O)OC2C1CCC1(C)CC1CCC1(C)OC21 (stereo not shown)	TEX	methylcellulose colony	2.5 µM, 11 d	–	colony number	7 ± 5.1
Cc1c(C)n(-c2c(C(C)C)cccc2C(C)C)c(=[Se])n1-c1c(C(C)C)cccc1C(C)C.[Cl][Ag]	LoVo MDR	MTT	–	relative to: LoVo MDR over LoVo	resistance factor	0.4
Cc1c(C)c(C)[c-](C)c1C.O=C1c2cccc[n+]2[Ir]([Cl])[N]1CCCCCCCCCC[P+](c1ccccc1)(c1ccccc1)c1ccccc1.[Br-]	SH-SY5Y	SRB	5 µM, 3 h, added: aldehyde Ia 20 µM, 24 h	relative to: aldehyde Ia alone	viability fold enhancement	2.1 fold
CCCc1nc2cc(C(=O)N3CCC4(CC3)CC(=O)c3cc5c(cc3O4)OC(C)(C)CC5)cc(C)c2[nH]1	AML12	refers to: malonyl-CoA	1 µM, 24 h	relative to: untreated	decrease	25%
CCC/C(=C\C1=C(C(F)(F)F)C(=O)c2ccccc2C1=O)C(=O)N(CC)CC	Pa03C cells	–	concentration not given, 6 h	–	NADPH/total NADP ratio	decreased
COc1cc(CNC(=O)C[C@H](C)CCC=C(C)C)ccc1OCc1cn(-c2ccc(Cl)c(Cl)c2)nn1	MDA-MB-231/ATCC	SRB	10 µM, 48 h	–	growth	75.7%
COc1ccc(/C=C/C2=[N+]3C(=C(C=O)c4c(C)c(Br)c(/C=C/c5ccc(OC)cc5)n4[B-]3(F)F)C(C)=C2Br)cc1	RPE-1	resazurin	added: 645 nm light	relative to: dark over light IC50	phototoxicity index	45 ± 2
COc1cc(/C=C/C(=O)/C=C(O)/C=C/c2ccc(OCC(=O)N3CCOCCOCCOCCOCC3)c(OC)c2)ccc1OCC(=O)N1CCOCCOCCOCCOCC1	COS-7	cell growth or viability, SRB	5 µM	–	inhibition	12.3%
Cc1ccc([N+](=O)[O-])cc1S(=O)(=O)N(C)/N=C/c1cnc2ccc(Br)cn12	HuT78	PI3K signalling, NanoString, pathway analysis	50 nM, 10 h	direction not given	activation z-score	-3.11
COc1cc(CNC(=O)C[C@H](C)CCC=C(C)C)ccc1OCc1cn(-c2ccccc2[N+](=O)[O-])nn1	MCF7 breast cancer cells	SRB	10 µM, 48 h	–	growth percent	50.5%
Cc1nccn1-c1nc(NN=Cc2c[nH]c3ccccc23)nc(Nc2ccc(Br)cc2)n1	A549 and SK-BR-3	autophagy, Western blot	3 µM, 20 h	–	LC3-II level	increased

Some of these lines once more:
SMILES	cell line	assay	conditions	scale	endpoint	value
COc1cc(CNC(=O)C[C@H](C)CCC=C(C)C)ccc1OCc1cn(-c2ccc(Cl)cc2Cl)nn1	MCF7 breast cancer cells	SRB	10 µM, 48 h	–	growth percent	67.5%
CN(C)c1cc2ccccc2c(N)n1	LX-2	western blot	concentration not given, 6 h pre-treatment, added: TGF-β1 5 ng/mL for 24 h	–	α-SMA protein level	inhibited
COc1cc(CNC(=O)C[C@H](C)CCC=C(C)C)ccc1OCc1cn(-c2ccccc2[N+](=O)[O-])nn1	MCF7 breast cancer cells	SRB	10 µM, 48 h	–	growth percent	50.5%
